# Published values collected from several papers.
# Numbered parts are unrelated; each lists some results of a single study. Substitutions count along the parent as printed.

# Block 1 — method: RNA Bind-n-Seq; form: RNA; medium: in vitro; tested at: 365 nM; reference: no-protein control; direction: higher = stronger binding
# Target: RNA binding protein fox-1 homolog 2, RRM domain, GST-SBP tag (RBFOX2, Homo sapiens, UniProt O43251-10, residues 100-194)
# Notes: natural RNA segment, single round, ends assumed
# Shared flanks, not repeated: GGGAGUUCUACAGUCCGACGAUC … UGGAAUUCUCGGGUGCCAA
# Target sequence (chain): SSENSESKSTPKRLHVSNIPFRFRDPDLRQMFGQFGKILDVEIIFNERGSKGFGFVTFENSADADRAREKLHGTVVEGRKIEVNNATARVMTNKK
Oligonucleotide,RBNS enrichment (R)
AAGAAAAUGCUUUUGGUUACUGAUACAUUUUUCCCUAAUUGACCUUUUCUAUUACUAAAUCUGAAAUAAAAUCAGUUUCUUUCCAGUUUAAAUGUUAACCAUUUGCAGAU,0.385
ACAUAUGUAUUGUUAAUUAUAAAUAUAGAUAAGUAAUGACAUAAUAGAUGAAAAAGUCUUAUUCAGAUGUAUCACAUUCAUUUUACAUUACCCACCUAUUGUCGCAUGGU,0.573
AUAGCCUCCAUGUGCUGCCCUUCUGCCCCAGAUCGUUUGUACAGAAAUCAUGCUGCCAUGGGUCACACUGGCCUCUCAGGCCCACCCGUCACGGGGAACACACAGCGUUA,0.383
AUUAGGAGAUUGACAGAUGAUGUUGUCUGACAGGUGGUUGGCUGUCCCAGAGAGAGAUAGAGACUCCCCAGCAUGUAGGGGGCAGAGUCACAAGAGUGCUGGCCUGGGAG,27
ACCCAGCAAGUGAAUCCAAUCUUCAGCAAUUCCCAUAGACCCAAGAAGCCUACUUUCCUGAGGCAGCAGCACUGCCACUGGAGCCUCCCGACAGGGCGUGCCUCUCCCAC,0.335
UUGUGGGCCUUGUUCCCUUUGAAGUGCUAAAUUCAUUUUGCCUAAUAAUACUACUUCUCUUUCCUUAUCUGAAUCUCUAACACCUCCAUUAGAAAAGUAGAGUUUGGAGA,0.639
UCUCAAUCCAUUUUUAGGUAGAAAGGGUCUUAAGUGAUACUUAUGCUUUGGCAUCCAGAGCAUAAGAGAUGAAUGCAGCUACCCUGUGCCAUCCUACUAUAAUAAAUUUU,0.701
UCCUCCUUCCCCAGGACCUGAGCUCCCAGCAUCUGCAGACGACCCCCGCAGCCUUUCCCUCGGACCCCCCUCGAAGCCCCCUGGACUGAUUCCCACCCACGACUCACAGG,1.44

# Block 2 — method: competition protein-binding microarray; form: double-stranded DNA, one strand shown; medium: in vitro; tested at: 2 µM; together with: Cbf1 competitor, 0.05 µM; direction: higher = stronger binding; shared flanks, not repeated: … GTCTTGATTCGCTTGACGCTGCTG
# Target: Phosphate system positive regulatory protein PHO4, full length, GST-tagged (PHO4, Saccharomyces cerevisiae, UniProt P07270, residues 1-312)
# Notes: whole 60-bp probe, lowest competitor level
# Residues (chain): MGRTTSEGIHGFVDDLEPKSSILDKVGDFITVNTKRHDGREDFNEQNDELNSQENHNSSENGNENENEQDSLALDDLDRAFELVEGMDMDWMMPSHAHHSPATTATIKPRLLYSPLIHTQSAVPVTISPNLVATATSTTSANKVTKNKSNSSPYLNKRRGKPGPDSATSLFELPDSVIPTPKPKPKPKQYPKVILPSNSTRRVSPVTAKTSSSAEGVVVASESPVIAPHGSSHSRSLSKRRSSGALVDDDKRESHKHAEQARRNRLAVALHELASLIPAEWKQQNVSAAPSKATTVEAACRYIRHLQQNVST
Oligonucleotide,fluorescence intensity [a.u.]
AAATTACTAAGTTGCCACGTGTTTTACCCCGTATGA,18500
TTAAGCGACCTCCTGCCCGTGAGAGAATCAAGTAAG,4780
TCGGCCATTGAGTTCCACGTTTAATACCGCCAGAGT,9830
GTATTATTATTCAAACGCGTGGTGATAGTCCCTTGA,11300
AAAAATTTTGAATGTCCCGTGACAAACAAAACCATT,5890
AAAGCGGTAATTTGTGTAGTGGGTGCAGATATCTAT,4580
GGTTGCGACGGAATCCACGTGCAAAACAACATAGTC,18500
TATCTTGACTATTGCCACGTTGCGGTAGGTGGTACG,16000

# Block 3 — method: aptamer microarray, sandwich; form: DNA with 2'F-ANA; medium: in vitro; tested at: 200 nM; together with: Cy3 exosite-II aptamer, 400 nM; direction: higher = stronger binding; oligonucleotide: GGTTGGTGTGGTTGG
# Target: Prothrombin, mature alpha-thrombin (F2, Homo sapiens, UniProt P00734)
# Notes: whole 15-mer aptamer, many near background
Modification,mean fluorescence intensity [a.u.]
2'F-ANA at 2 4 5 6 7 9 10 11 13,102
2'F-ANA at 3 5 8 9 10 12 13 15,63.4
2'F-ANA at 2 4 5 8 10 12 13 14 15,49.9
2'F-ANA at 1 3 4 8 9 10 13 14 15,75.6
2'F-ANA at 3 4 5 7 8 14,115
2'F-ANA at 3 4 6 7 8 12 14,416
2'F-ANA at 3 4 5 6 9 13 14 15,50.2
2'F-ANA at 9 10 11 12 14 15,97.5

# Further values, each from its own experiment
# Starting sequence: PafA, mature enzyme, eGFP fusion (Elizabethkingia meningoseptica, UniProt Q9KJX5); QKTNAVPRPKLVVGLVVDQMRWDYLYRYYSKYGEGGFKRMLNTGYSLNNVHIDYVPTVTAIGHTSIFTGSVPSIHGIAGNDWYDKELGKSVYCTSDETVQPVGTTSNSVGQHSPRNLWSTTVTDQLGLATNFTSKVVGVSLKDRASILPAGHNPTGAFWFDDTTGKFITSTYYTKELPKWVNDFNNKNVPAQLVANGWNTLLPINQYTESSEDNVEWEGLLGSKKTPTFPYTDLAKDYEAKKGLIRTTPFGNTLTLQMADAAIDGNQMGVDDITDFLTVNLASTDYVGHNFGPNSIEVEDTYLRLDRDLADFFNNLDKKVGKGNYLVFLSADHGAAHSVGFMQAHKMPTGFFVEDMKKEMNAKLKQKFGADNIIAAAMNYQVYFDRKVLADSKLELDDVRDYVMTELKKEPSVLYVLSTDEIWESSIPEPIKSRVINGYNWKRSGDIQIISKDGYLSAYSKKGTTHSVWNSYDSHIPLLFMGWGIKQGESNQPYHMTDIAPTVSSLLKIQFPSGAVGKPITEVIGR
Change,target,test,system,setting,how to read,endpoint,result
P348G,"tungstate, free oxyanion",microfluidic competitive inhibition,"in vitro, cell-free expressed","not given, derived from inhibition constants, unchanged parent 2230 nM",lower = stronger binding,oxyanion analog dissociation constant,1.14 µM

# A few entries again (block 2):
Oligonucleotide,fluorescence intensity [a.u.]
TATCTTGACTATTGCCACGTTGCGGTAGGTGGTACG,16000
AAAGCGGTAATTTGTGTAGTGGGTGCAGATATCTAT,4580
TTAAGCGACCTCCTGCCCGTGAGAGAATCAAGTAAG,4780
